{"data": "Published values collected from several papers", "organism": "Plasmodium falciparum", "note": "Compare with care: the assays were run in different laboratories. ± gives the spread as reported."}
{"SMILES": "Cc1[nH]c(/C=C2\\N=C(c3ccc[nH]3)C3=C2OCCO3)cc1Cc1ccc(Cl)cc1", "assay": "parasite growth, SYBR Green fluorescence", "system": "Dd2 (multidrug-resistant), asexual blood stage", "conditions": "72 h", "IC50 [nM]": 9.78}
{"SMILES": "COc1cc(CO)c(-c2ccc3c(c2O)[C@@H](C)N[C@H](C)C3)c2cccc(O)c12", "assay": "asexual parasite proliferation, SYBR Green I fluorescence", "system": "HB3", "IC50 [nM]": "11 ± 1.9"}
{"SMILES": "c1ccc(Oc2ccc(-c3cc(C4CCOCC4)[nH]n3)cc2)cc1", "assay": "parasite growth, inhibitor, SYBR Green I", "system": "3D7", "IC50 [nM]": "> 100000"}
{"SMILES": "O=C(CC1NCCCC1O)Cn1cnc2cc(Br)c(Cl)cc2c1=O (stereo not drawn)", "assay": "parasite growth", "system": "conditional knockdown control line", "conditions": "120 h, added: 50 nM anhydrotetracycline", "IC50 [nM]": 0.5}
{"SMILES": "COc1nc2ccc(Br)cc2cc1[C@@H](c1ccccc1)[C@@](O)(CCN(C)C)c1cccc2ccccc12", "assay": "parasite growth, stage-specific treatment", "conditions": "12 h, early to late trophozoite stage", "IC50 [nM]": "3220 ± 530"}
{"SMILES": "CC1=C(C)/C(=C/c2[nH]c(Cc3ccc(OC(F)(F)F)cc3)cc2Cc2ccc(OC(F)(F)F)cc2)N=C1c1ccc[nH]1", "assay": "parasite growth, SYBR Green fluorescence", "system": "Dd2 (multidrug-resistant), asexual blood stage", "conditions": "72 h", "IC50 [nM]": 1480}
{"SMILES": "COc1cc(C)c(-c2ccc(O)c3c2C[C@@H](C)N[C@@H]3C)c2cccc(O)c12 (single isomer, unassigned)", "assay": "asexual parasite growth, SYBR Green I", "system": "clinical isolate SB_04, Malawi", "IC50 [nM]": "13.8 ± 0.35"}
{"SMILES": "NC(N)=Nc1ccc(-c2ccc(-c3ccc(N=C(N)N)c(Cl)c3)o2)cc1Cl", "assay": "parasite growth, stage-specific treatment", "conditions": "12 h, early to late trophozoite stage", "IC50 [nM]": "700 ± 30"}
{"SMILES": "CCC1=C(CC)/C(=C/c2cc(Cc3ccc(OC(F)(F)F)cc3)c(C)[nH]2)N=C1c1ccc[nH]1", "assay": "parasite growth, SYBR Green fluorescence", "system": "Dd2 (multidrug-resistant), asexual blood stage", "conditions": "72 h", "IC50 [nM]": 269}
{"note": "Repeated from above:"}
{"SMILES": "NC(N)=Nc1ccc(-c2ccc(-c3ccc(N=C(N)N)c(Cl)c3)o2)cc1Cl", "assay": "parasite growth, stage-specific treatment", "conditions": "12 h, early to late trophozoite stage", "IC50 [nM]": "700 ± 30"}
